Measurements collected from several papers.
Lines come from different studies, so protocols differ. Values joined by “and” are separate records of one study, mostly repeats; a detail may differ. ± marks the error that the study gave.

Structure (SMILES) = CCCCCCCCCCCCCCCC(=O)N[C@H]1C[C@@H](O)[C@@H](O)NC(=O)[C@@H]2[C@@H](O)[C@@H](C)CN2C(=O)[C@H]([C@@H](C)O)NC(=O)[C@H]([C@H](O)[C@@H](O)c2ccc(O)cc2)NC(=O)[C@@H]2C[C@@H](O)CN2C(=O)[C@H]([C@@H](C)O)NC1=O; test = calcein leakage; test system = DOPC/DOPG/CHOL liposomes; conditions = concentration not given, together with: 20 wt% PEG-8000; endpoint = maximum fusion; result = 40 ± 10%
Structure (SMILES) = Nc1ccccc1C(=O)[O-].[Na+]; test = binding, equilibrium dialysis LC-MS; conditions = 5 µM, thermostabilized A2AR-BRIL construct; how to read = baseline: no-protein control, direction not given; endpoint = z-scored log2 fold change; result = -0.0241
Structure (SMILES) = CN1CCN(S(=O)(=O)c2cc([N+](=O)[O-])ccc2N(CCOS(C)(=O)=O)CCOS(C)(=O)=O)CC1; test system = NSG mice, sample BF PDX; conditions = intraperitoneal, 25 mg/kg weekly x3; endpoint = event-free survival; result = 4.8 days
Structure (SMILES) = C[C@H](NC(=O)c1c(C(F)F)nn(C)c1Oc1cccc(C(F)(F)F)c1)c1ccc(C(=O)O)cc1; test system = human, advanced tumours; conditions = 500 mg; endpoint = median overall survival; result = 3.7 months
Structure (SMILES) = CC(C)C[C@H](NC(=O)[C@H](CCC1CCCCC1)NC(=O)[C@@H]1CCCN1C(=O)c1ccc(F)cc1)C(=O)NC(C)(C)C(=O)N[C@@H](CC(C)C)C(=O)N[C@@H](CC(C)C)C(=O)NC(C)(C)C(=O)NC(C)(C)C(=O)NCCC(=O)NC1(CN(C)C)CCC1; test system = pure DOPC GUVs; conditions = 1 µM; endpoint = HPTS leakage; result = ~10%
Structure (SMILES) = CC[C@H](C)[C@@H]1NC(=O)[C@@H]2CCCN2C(=O)[C@H](CC(C)C)NC(=O)[C@H](CC(C)C)NC(=O)CNC(=O)[C@@H](NC(=O)[C@@H](NC(=O)[C@H](CC(=O)O)NC(=O)CNC(=O)[C@@H](NC(=O)[C@H](C)NC(=O)CNC(=O)[C@H](CCCCN)NC(=O)[C@H](CC(C)C)NC(=O)[C@H](CC(C)C)NC(=O)[C@H](CCCCN)NC(=O)CNC(=O)[C@@H](NC(=O)[C@@H](N)CC(C)C)C(C)C)C(C)C)C(C)C)CSSC[C@@H](C(=O)O)NC1=O; test = RNA-seq, refers to: Acpp mRNA; test system = mouse traumatic brain injury, frontal cortex and hippocampus; conditions = dose not given; how to read = baseline: TBI plus compound vs TBI; endpoint = log2 fold change; result = -2.55
Structure (SMILES) = CN(C(=O)CN1C(=O)COc2cc(Cl)c(Cl)cc21)[C@@H](CN1CCCC1)c1ccc(-c2cccc(C(N)=O)c2)cc1; test = open field test; test system = humanized UT (+/h+) mice; conditions = dose not given; endpoint = distance travelled; result = 28 m and 30 m and 31 m and 20 m and 22 m and 33 m
Structure (SMILES) = CC(=O)c1c(C)c2cnc(Nc3ccc(C4CCN(CCS(C)(=O)=O)CC4)cn3)nc2n(C2CCCC2)c1=O; test = RECIST v1.1; test system = HR+/HER2- advanced breast cancer patients; conditions = 100 mg twice daily, phase Ib monotherapy arm; endpoint = best response progressive disease; result = 0%
Structure (SMILES) = CC(C)(O)c1cnc2ncc(-c3ccc(F)c(-c4c(F)cccc4C#N)c3)n2n1; test = midazolam self-administration decrease, progressive-ratio schedule; test system = rhesus monkey; conditions = intravenous, together with: midazolam 0.056 mg/kg/injection; how to read = baseline: vehicle; endpoint = minimum effective dose; result = 0.3 mg/kg
Structure (SMILES) = Clc1cc2c(cc1Cl)Oc1cc(Cl)c(Cl)cc1O2; test = RNA-Seq, refers to: Ptgs1; test system = female Sprague-Dawley rat, liver; conditions = dose not given; how to read = baseline: vehicle; endpoint = mRNA level; result = 1.4 fold
Structure (SMILES) = CCCCC1(CCCC)CN(c2ccccc2)c2cc(SC)c(OCC(=O)N[C@@H](C(=O)NCC(=O)O)c3ccccc3)cc2S(=O)(=O)C1; test = refers to: HDL cholesterol; test system = human, serum; conditions = 10 mg once daily, day 5; endpoint = serum HDL-C; result = 48.8 mg/dL
Structure (SMILES) = Cc1cc(C2CCCCC2)n(O)c(=O)c1; test = AlphaScreen counterscreen; test system = biotin-BSA bead system; endpoint = AC50; result = 1.56 µM
Structure (SMILES) = O=C1N(Cc2ccccc2Cl)c2ccccc2C12NN=C(c1ccccc1)S2 (centres unmarked); test system = WSU-FSCCL xenograft, mouse; conditions = intravenous, 923.8 mg/kg total; endpoint = increase in life span; result = 0%
Structure (SMILES) = C[C@]1(CO)Cc2ncn(-c3ccc(C#N)c(Cl)c3)c2C(=O)O1; test system = Japanese subjects; conditions = 20 mg single dose; endpoint = urinary sodium excretion 0-24 h; result = 137 mmol
Structure (SMILES) = Cc1cn(-c2cc(NC(=O)c3ccc(C)c(Nc4nccc(-c5cccnc5)n4)c3)cc(C(F)(F)F)c2)cn1; test = refers to: NPI caregiver distress score; test system = human; conditions = dose not given, 12 months versus baseline, unit not given; how to read = baseline: placebo; endpoint = mean difference in change; result = 0
Structure (SMILES) = C[C@H]1O[C@@H](O[C@H]2CC[C@@]3(C)[C@@H](CC[C@]4(C)[C@@H]3C=C[C@]35OC[C@@]6(CCC(C)(C)C[C@H]63)[C@@H](O)C[C@]54C)[C@]2(C)CO)[C@H](O)[C@@H](O[C@@H]2O[C@H](CO)[C@@H](O)[C@H](O)[C@H]2O)[C@H]1O; test = Western blot, refers to: Deptor; test system = mouse, hepatic SIRT1 knockdown (AAV8-TBG), liver; conditions = dose not given, high dose, unit not given, together with: ethanol; how to read = baseline: β-actin; endpoint = protein level; result = 0.602 and 0.759 and 0.852
Structure (SMILES) = [131I-].[Na+]; test system = paediatric patients, differentiated thyroid carcinoma, intermediate risk; conditions = dose not given, retrospective; endpoint = patients requiring second dose; result = 7.2%
Structure (SMILES) = CCCc1nn(C)c2c(=O)[nH]c(-c3cc(S(=O)(=O)N4CCN(C)CC4)ccc3OCC)nc12; test system = human patients on drug, serum or plasma; conditions = dose not given, on:off matching 1:10; how to read = baseline: off-drug patients, 5.94 mg/dL; endpoint = mean serum uric acid; result = 6.97 mg/dL
Structure (SMILES) = CC(C)CCCCCCCCC[C@@H]1CC(=O)N[C@@H](CCC(=O)O)C(=O)N[C@@H](CC(C)C)C(=O)N[C@H](CC(C)C)C(=O)N[C@@H](C(C)C)C(=O)N[C@@H](CC(=O)O)C(=O)N[C@H](CC(C)C)C(=O)N[C@@H](CC(C)C)C(=O)O1; test = calcein leakage; test system = DOPC/CHOL liposomes; conditions = concentration not given, together with: 20 wt% PEG-8000; endpoint = maximum fusion; result = 59 ± 4%
Structure (SMILES) = CNC(=O)CC1C(=O)N(C2CCN(C3CCC(C(C)C)CC3)CC2)c2ccccc21 (centres unmarked); test system = conscious Sprague-Dawley rat; conditions = intravenous bolus, 100 nmol/kg; endpoint = peak decrease in mean arterial pressure; result = -57 ± 15 mmHg

For quick reference, copied from above:
Structure (SMILES) = CC(=O)c1c(C)c2cnc(Nc3ccc(C4CCN(CCS(C)(=O)=O)CC4)cn3)nc2n(C2CCCC2)c1=O; test = RECIST v1.1; test system = HR+/HER2- advanced breast cancer patients; conditions = 100 mg twice daily, phase Ib monotherapy arm; endpoint = best response progressive disease; result = 0%
Structure (SMILES) = CC(C)(O)c1cnc2ncc(-c3ccc(F)c(-c4c(F)cccc4C#N)c3)n2n1; test = midazolam self-administration decrease, progressive-ratio schedule; test system = rhesus monkey; conditions = intravenous, together with: midazolam 0.056 mg/kg/injection; how to read = baseline: vehicle; endpoint = minimum effective dose; result = 0.3 mg/kg
